# Measurements gathered from unrelated publications.
# Compare with care: the assays were run in different laboratories. ± marks the error that the study gave.
SMILES,target,assay,system,conditions,how to read,quantity,result
O=C(Cc1cccc(Br)c1)N[C@H]1CCOC1=O,ExpR1 (Pectobacterium carotovorum),"cellulase activity, agonist","Pectobacterium carotovorum, single-ExpR1 strain","200 µM, 4 h",relative to: OHHL,activation,63%
CCC(CC)Nc1c([N+](=O)[O-])cc(C)c(C)c1[N+](=O)[O-],anti-BL mouse monoclonal antibody,"binding, indirect competitive ELISA",,"pH 7.4, 1% methanol",,IC50,> 1 µg/mL
Nc1ncnc2c1ccn2[C@@H]1O[C@@H]2COP(=O)(O)O[C@H]2[C@H]1O,anti-cAMP antibody,"binding, cAMP EIA, acetylated",,,,EC50,> 10000 nM
O=C(Cc1ccc(I)cc1)N[C@H]1CCOC1=O,ExpR1 (Pectobacterium carotovorum),"cellulase activity, agonist","Pectobacterium carotovorum, single-ExpR1 strain","200 µM, 4 h",relative to: OHHL,activation,6%
c1ccc2c(c1)OCC(C1=NCCN1)O2 (stereo not drawn),rat central imidazoline I2 receptor,radioligand binding,,,,IC50,7 nM
c1ccc(C(NCCNC(c2ccccc2)c2ccccc2)c2ccccc2)cc1,"NMDA receptor, rat, Phencyclidine site",binding,,"10 µM, Eurofins selectivity panel",,inhibition,22%
CCCCCCCCCC(=O)N[C@H]1CCOC1=O,ExpR1 (Pectobacterium carotovorum),"cellulase activity, agonist","Pectobacterium carotovorum, single-ExpR1 strain","200 µM, 4 h",relative to: OHHL,activation,6%
O=C(Nc1nc2cccc(-c3ccc(CN4CCS(=O)(=O)CC4)cc3)n2n1)C1CC1,NLRP3 inflammasome,,,10 µM,,inhibition,90.6%
O=C(Cc1ccc(Br)cc1)N[C@H]1CCOC1=O,ExpR1 (Pectobacterium carotovorum),"cellulase activity, agonist","Pectobacterium carotovorum, single-ExpR1 strain","200 µM, 4 h",relative to: OHHL,activation,4%
CC(C)CC(=O)OC[C@H]1O[C@@](C#N)(c2ccc3c(N)ncnn23)[C@H](O)[C@@H]1O,AMPA glutamate receptor rat,radioligand binding,,20 µM,,inhibition,-3%
O=C(Cc1cccc([N+](=O)[O-])c1)N[C@H]1CCOC1=O,ExpR1 (Pectobacterium carotovorum),"cellulase activity, agonist","Pectobacterium carotovorum, single-ExpR1 strain","200 µM, 4 h",relative to: OHHL,activation,115%
N#Cc1c(N)nc(SCC(N)=O)c(C#N)c1-c1ccc(OCC2CC2)cc1,ERK1/2 rat,increase of activity,H9c2,no PMA,,EC50,463 ± 126 nM
O=C(Cc1cccc2ccccc12)N[C@H]1CCOC1=O,ExpR1 (Pectobacterium carotovorum),"cellulase activity, antagonist","Pectobacterium carotovorum, single-ExpR1 strain","5 µM, 4 h, added: OHHL 5 µM",,inhibition,69%
CCCN(CCC)c1c([N+](=O)[O-])cc(C(C)C)cc1[N+](=O)[O-],anti-BL mouse monoclonal antibody,"binding, indirect competitive ELISA",,"pH 7.4, 1% methanol",,IC50,> 1 µg/mL
[Cd+2],PP2C,enzyme activity,,concentration not given,,activity class,inactive
C[C@H](C(=O)N[C@H]1COc2ccccc2[C@@H]1S(C)(=O)=O)c1ccc(F)cc1,"L-type calcium channel, rat, Benzothiazepine site",binding,,"10 µM, Eurofins selectivity panel",,inhibition,3%
[Ni+2],PP2C,enzyme activity,,concentration not given,,activity class,active
Oc1cc(Cl)ccc1Oc1ccc(Cl)cc1Cl,nanobody T1 (Bactrian camel),"ELISA, IC50-based",,"concentration not given, coating antigen T1/H1-BSA",,cross-reactivity,100%
CCCCCC(=O)N[C@H]1CCOC1=O,ExpR1 (Pectobacterium carotovorum),"cellulase activity, agonist","Pectobacterium carotovorum, single-ExpR1 strain","200 µM, 4 h",relative to: OHHL,activation,5%
COc1cc(Nc2ncc(F)c(Nc3ccc4c(n3)NC(=O)C(C)(C)O4)n2)cc(OC)c1OC,glycine transporter,,,,,IC50,> 10000 nM
NCCc1c[nH]c2ccccc12,NMT from Rhinella marina,,,"10 min, 30 °C",,kcat,0.00052 s⁻¹
